Measured values of several laboratories.
A part holds a random share of what one study measured.

Series 1
Target: Interferon regulatory factor 7, full length, phosphomimetic (IRF7, Homo sapiens, UniProt Q92985, residues 1-503, S471D/S472D/S475D/S476D/S477D/S483D/S484D/S487D)
UniProt Q92985, sequence (whole entry, unmodified, looked up): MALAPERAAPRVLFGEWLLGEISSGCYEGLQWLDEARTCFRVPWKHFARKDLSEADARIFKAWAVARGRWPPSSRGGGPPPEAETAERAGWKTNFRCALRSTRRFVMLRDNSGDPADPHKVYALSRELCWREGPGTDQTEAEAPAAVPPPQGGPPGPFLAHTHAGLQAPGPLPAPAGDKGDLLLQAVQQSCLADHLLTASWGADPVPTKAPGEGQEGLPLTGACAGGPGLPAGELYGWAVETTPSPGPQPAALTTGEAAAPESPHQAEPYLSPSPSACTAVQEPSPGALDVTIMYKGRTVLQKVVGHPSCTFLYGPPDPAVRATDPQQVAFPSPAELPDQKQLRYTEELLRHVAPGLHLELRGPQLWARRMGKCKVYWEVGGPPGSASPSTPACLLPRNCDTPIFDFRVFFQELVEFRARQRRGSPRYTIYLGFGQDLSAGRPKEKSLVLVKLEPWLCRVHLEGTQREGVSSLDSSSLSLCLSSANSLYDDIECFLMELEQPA
Technique: protein-binding microarray
Form: double-stranded DNA, one strand shown
Sample: in vitro
Tested at: 2200 nM top
Setting: 60-bp whole probe
With: salmon DNA 0.4 mg/ml
Relative to: random background probes
Reading: higher = stronger binding
All sequences stand within: GCCTAGCAC … GTCTTGATTCGCTTGACGCTGCTG
For `GACGATTTCGGTTCCGAGACGTGCTAG`, “fitted relative affinity” read 6.14 z-score.
`TGAGGTTTCGGACTGGGTTAGTGCTAG`: “fitted relative affinity” 2.68 z-score.
For `TCATTTTTTTTTTTCTGACTGTGCTAG`, “fitted relative affinity” read 2.33 z-score.
Under “fitted relative affinity”, `GAAGATTTCAATTAGAAAAAGTGCTAG` is recorded as -1.05 z-score.
`TCACTTTTATCCCTGACACTGTGCTAG` — result for “fitted relative affinity”: 2.24 z-score.
Under “fitted relative affinity”, `TTAGGTTGCGGGTTTCGGTTAGTGCTA` is recorded as 3.85 z-score.
`GACGGTATCCTTATCCTGTCGTGCTAG`: “fitted relative affinity” 1.44 z-score.

Series 2
Target: Ras GTPase-activating protein-binding protein 1, full length (G3BP1, Homo sapiens, UniProt Q13283)
UniProt Q13283, sequence (whole entry, looked up): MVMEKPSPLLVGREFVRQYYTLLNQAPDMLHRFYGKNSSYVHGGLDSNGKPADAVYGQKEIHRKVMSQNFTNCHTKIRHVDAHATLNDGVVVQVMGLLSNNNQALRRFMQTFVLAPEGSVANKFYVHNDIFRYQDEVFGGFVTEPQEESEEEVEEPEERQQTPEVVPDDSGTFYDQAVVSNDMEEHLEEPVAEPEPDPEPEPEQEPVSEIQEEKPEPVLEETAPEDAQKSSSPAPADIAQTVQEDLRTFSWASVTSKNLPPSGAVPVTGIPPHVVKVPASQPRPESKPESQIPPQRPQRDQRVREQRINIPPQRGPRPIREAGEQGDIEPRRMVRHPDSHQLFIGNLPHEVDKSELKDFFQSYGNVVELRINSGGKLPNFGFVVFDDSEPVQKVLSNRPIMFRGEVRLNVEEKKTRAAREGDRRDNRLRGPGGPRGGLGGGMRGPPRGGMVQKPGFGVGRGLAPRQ
Technique: RNA Bind-n-Seq
Form: RNA
Sample: in vitro
Tested at: 200 nM
Setting: whole 134-nt RNA, ends assumed
With: 150 mM KCl
Relative to: input library
Reading: higher = stronger binding
All sequences stand within: GGGAGUUCUACAGUCCGACGAUC … UGGAAUUCUCGGGUGUCAAGG
`CCUGUGCUACACAUCGUAUGUACCGAAUCGGGUUUUUUUGGGAAAAAGGGUUUUUUUGGGAAAGUAUUAUGUUACGCCGUUCGGAUCUGC` gave a log2 enrichment of -0.992.
`UGUGUGACUUCCUUGGAGAGAAGAUUGCAUCUGUUUUGGGUAUCAGCACCCCAAAGUACCAAUAUGCCAUUGAUGAAUAUUAUCGGAUGA` has a log2 enrichment of 0.65.
`CCUCAAGUCCUGUGCUACACAUCGUAUGUACCGAAUCGGGCGGGCGGGGCGGAAAGUAUUAUGUUACGCCGUUCGGAUCUGCACUUCCAG` has a log2 enrichment of 0.933.
For `CCUCAAGUCCUGUGCUACACAUCGUAUGUACCGAAUCGGUUUUUGGAGGUGGAAAGUAUUAUGUUACGCCGUUCGGAUCUGCACUUCCAG`, the log2 enrichment was -0.0834.
For `CACAGACAACACGCACCCACACAGACACAGAGGGAAGGGGUUGGGAUGGGGACAGGGUGCACAGCAGGGCGGGGUAAAACCCCAGCCCCU`, the log2 enrichment was 2.02.
`UCAAGUCCUGUGCUACACAUCGUAUGUACCGAAUCGGCCCGGCCCGGCCCGGGGAAAGUAUUAUGUUACGCCGUUCGGAUCUGCACUUCC` has a log2 enrichment of -0.561.
With `CAAGUCCUGUGCUACACAUCGUAUGUACCGAAUCGGAAAGGAAAAAAAGGUUUGGAAAGUAUUAUGUUACGCCGUUCGGAUCUGCACUUC` the log2 enrichment was -1.29.

Series 3
Target: RING finger protein unkempt homolog, zinc fingers 1-6, GST-SBP tag (UNK, Homo sapiens, UniProt Q9C0B0, residues 30-357)
Technique: RNA Bind-n-Seq
Form: RNA
Sample: in vitro
Tested at: not given
Setting: RNA with constant flanks, human-mouse chimeric sites, ends assumed
Relative to: input RNA pool
Reading: higher = stronger binding
All sequences stand within: GGGAGUUCUACAGUCCGACGAUC … CAACAGAGGAUUGAGCAUCA
Residues (chain): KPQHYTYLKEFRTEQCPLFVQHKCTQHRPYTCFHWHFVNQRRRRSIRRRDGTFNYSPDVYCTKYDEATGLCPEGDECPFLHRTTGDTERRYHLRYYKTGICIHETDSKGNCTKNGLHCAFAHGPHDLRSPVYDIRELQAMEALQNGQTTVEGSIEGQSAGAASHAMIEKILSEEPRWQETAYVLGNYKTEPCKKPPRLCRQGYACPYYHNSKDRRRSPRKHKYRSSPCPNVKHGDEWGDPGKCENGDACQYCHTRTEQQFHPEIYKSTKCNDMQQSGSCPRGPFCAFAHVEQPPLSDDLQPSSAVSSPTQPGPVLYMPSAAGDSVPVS
`AGUGUGCAGGAAUUCAUGACCUUCACGAGUCAACUGAUUGUGGAACGCUCGGGGAAAGGCAGCAGAGCUUCUGUCAAAGAACAAGAGUAUCUUUGCCAUGUCUACGUCCGGAGCGACAGU` has a bound/input enrichment of 0.0898 ratio.
For `GAGCGUCUUGCCCGCACUGGGAUCAUCGUGACCACUAGUGAGGCUGUCCUCCUACAGCUGGUGGCUGAUAAGGACCACCCGAAGUUCAAGGAAAUUCAGAAUCUAAUUAAGGCGAGUGCC`, the bound/input enrichment was 0.0914 ratio.
`ACCUCCCCCUCCCGCCUCACCCCACCCCCGCUUUUUGGAAAGUUUUUGGCGUUUCUUUUCCUUCCCCAUACAAAGUGGUUUUUACCACCCCCGCAAGGGUCUAUCGAAGGGCUUGACGGA` has a bound/input enrichment of 1.92 ratio.
`GCUCUUGGGAAUGUAAUCAGCGCCUUGGGGGACAAGAGCAAGAGAGCCACACAUGUCCCCUAUAGAGACUCUAAGCUGACAAGACUCUUGCAGGAUUCCCUUGGGGGUAACAGCCAAACC` has a bound/input enrichment of 0.122 ratio.
For `GUGCCCUUCUCGCUGCUGCGGAGCCCGAGCUGGGAACCAUUCCGGGACUGGUACCCUGCACACAGCCGCCUCUUCGAUCAAGCUUUCGGGCUGCCCCGGCUGCCGGAUGAGUGGUCGCAG`, the bound/input enrichment was 0.0639 ratio.
`CUCAGAGACGUGGCAUAUCAGUAUGUGAAAAAGGGGGCUCGUAUAUUUUUGGAAGGGAAAGUGGACUAUGGCGAGUACAUGGAUAAAAACAAUGUGAGGCGGCAAGCAACAACAAUCAUA` gave a bound/input enrichment of 0.367 ratio.

Other studies, line by line
`PhoQ, residues 284 288 289 292 302 303 NLGVHL` gave a fold induction of 8.54 (PhoP, residues 12 14 15 18 19 HEGLL (Escherichia coli, UniProt P23836); Sort-seq, measured: YFP reporter; E. coli; PhoQ-PhoP variant library, with: 10 µM Mg2+; relative to: high Mg2+ state, higher = stronger signaling).

Some of these lines once more (series 2):
`UCAAGUCCUGUGCUACACAUCGUAUGUACCGAAUCGGCCCGGCCCGGCCCGGGGAAAGUAUUAUGUUACGCCGUUCGGAUCUGCACUUCC` has a log2 enrichment of -0.561.
With `CAAGUCCUGUGCUACACAUCGUAUGUACCGAAUCGGAAAGGAAAAAAAGGUUUGGAAAGUAUUAUGUUACGCCGUUCGGAUCUGCACUUC` the log2 enrichment was -1.29.
